Results gathered from unrelated publications.
Parts stem from different laboratories: compare values within a part only. pEC50: −log10 of the molar value.
UniProt P10721, sequence (whole entry, unmodified, looked up): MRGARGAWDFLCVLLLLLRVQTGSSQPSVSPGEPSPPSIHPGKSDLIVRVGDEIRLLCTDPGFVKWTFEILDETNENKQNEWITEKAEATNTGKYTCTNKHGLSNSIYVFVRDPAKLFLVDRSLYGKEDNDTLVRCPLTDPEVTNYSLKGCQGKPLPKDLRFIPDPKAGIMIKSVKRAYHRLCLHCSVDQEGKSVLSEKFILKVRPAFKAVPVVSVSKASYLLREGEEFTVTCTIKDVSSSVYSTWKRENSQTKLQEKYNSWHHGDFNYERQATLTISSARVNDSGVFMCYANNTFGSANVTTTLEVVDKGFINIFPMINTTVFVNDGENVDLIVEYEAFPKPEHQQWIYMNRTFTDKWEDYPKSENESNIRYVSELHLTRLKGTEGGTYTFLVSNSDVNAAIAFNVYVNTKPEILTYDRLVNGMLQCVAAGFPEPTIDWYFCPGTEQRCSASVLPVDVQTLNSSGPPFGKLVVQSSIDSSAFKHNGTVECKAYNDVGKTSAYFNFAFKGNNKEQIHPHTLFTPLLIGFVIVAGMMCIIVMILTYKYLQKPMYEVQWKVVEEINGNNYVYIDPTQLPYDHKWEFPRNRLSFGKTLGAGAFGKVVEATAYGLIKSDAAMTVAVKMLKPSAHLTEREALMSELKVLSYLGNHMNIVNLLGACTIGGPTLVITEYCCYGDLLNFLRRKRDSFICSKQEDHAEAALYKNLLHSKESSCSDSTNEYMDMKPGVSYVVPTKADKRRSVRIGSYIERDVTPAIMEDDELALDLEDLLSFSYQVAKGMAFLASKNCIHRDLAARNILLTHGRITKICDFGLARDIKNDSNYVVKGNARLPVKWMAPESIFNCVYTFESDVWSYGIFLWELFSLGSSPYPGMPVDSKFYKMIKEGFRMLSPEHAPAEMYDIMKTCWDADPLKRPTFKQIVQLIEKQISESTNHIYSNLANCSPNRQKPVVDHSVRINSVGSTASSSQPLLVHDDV
UniProt P42684, sequence (whole entry, looked up): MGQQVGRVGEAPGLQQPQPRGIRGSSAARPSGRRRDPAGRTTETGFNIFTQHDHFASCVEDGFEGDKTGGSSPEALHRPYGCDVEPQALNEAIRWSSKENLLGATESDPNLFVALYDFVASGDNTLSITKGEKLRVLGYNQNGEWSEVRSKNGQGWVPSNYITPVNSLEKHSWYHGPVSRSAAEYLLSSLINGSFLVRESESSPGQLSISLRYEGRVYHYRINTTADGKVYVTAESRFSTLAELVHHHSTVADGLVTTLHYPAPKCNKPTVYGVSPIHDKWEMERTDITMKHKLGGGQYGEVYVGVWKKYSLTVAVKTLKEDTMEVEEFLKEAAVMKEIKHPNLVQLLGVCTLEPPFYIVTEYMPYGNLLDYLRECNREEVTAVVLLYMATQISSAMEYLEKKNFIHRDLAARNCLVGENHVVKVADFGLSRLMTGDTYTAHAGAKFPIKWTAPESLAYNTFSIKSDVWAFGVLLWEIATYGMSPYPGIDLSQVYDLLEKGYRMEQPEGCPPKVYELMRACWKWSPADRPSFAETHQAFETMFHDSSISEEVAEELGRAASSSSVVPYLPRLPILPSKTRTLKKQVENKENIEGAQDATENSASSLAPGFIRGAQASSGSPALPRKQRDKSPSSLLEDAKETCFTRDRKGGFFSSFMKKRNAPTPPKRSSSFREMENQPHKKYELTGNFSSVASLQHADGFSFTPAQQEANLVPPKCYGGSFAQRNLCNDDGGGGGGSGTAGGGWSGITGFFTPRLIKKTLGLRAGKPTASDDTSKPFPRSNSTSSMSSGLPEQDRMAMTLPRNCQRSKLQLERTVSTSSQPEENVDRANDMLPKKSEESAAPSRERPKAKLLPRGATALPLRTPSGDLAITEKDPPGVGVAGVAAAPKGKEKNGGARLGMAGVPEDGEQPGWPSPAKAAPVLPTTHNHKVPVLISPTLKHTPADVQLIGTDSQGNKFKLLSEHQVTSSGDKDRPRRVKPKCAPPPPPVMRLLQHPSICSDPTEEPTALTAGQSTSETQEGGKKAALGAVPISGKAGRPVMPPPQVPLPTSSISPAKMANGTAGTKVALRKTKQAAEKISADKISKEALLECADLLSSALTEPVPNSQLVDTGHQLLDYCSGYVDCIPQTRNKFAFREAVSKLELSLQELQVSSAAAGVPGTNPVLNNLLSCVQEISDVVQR
UniProt P0C1S8, sequence (whole entry, looked up): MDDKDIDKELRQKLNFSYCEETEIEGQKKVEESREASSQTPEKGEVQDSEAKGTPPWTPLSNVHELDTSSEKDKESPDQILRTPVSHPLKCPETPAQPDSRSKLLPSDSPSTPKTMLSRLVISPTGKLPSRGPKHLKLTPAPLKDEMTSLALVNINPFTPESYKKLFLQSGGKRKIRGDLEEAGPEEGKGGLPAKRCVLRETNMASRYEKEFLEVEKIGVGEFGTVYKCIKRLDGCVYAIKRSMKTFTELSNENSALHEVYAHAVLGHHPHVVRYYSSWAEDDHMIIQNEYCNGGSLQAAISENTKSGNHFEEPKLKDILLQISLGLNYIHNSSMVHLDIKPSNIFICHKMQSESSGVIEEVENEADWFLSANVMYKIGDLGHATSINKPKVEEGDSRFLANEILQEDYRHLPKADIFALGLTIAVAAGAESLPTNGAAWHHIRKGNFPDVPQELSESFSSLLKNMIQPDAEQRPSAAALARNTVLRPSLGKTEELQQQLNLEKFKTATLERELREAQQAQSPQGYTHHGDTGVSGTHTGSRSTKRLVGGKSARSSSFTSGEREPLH

Set 1 — observed: enzyme activity; action: inhibitor; concentration: 0.5 µM; baseline: control; measurement: remaining activity
Target: Serine/threonine-protein kinase WNK3 (WNK3, Homo sapiens, UniProt Q9BYP7)
UniProt Q9BYP7, sequence (whole entry, looked up): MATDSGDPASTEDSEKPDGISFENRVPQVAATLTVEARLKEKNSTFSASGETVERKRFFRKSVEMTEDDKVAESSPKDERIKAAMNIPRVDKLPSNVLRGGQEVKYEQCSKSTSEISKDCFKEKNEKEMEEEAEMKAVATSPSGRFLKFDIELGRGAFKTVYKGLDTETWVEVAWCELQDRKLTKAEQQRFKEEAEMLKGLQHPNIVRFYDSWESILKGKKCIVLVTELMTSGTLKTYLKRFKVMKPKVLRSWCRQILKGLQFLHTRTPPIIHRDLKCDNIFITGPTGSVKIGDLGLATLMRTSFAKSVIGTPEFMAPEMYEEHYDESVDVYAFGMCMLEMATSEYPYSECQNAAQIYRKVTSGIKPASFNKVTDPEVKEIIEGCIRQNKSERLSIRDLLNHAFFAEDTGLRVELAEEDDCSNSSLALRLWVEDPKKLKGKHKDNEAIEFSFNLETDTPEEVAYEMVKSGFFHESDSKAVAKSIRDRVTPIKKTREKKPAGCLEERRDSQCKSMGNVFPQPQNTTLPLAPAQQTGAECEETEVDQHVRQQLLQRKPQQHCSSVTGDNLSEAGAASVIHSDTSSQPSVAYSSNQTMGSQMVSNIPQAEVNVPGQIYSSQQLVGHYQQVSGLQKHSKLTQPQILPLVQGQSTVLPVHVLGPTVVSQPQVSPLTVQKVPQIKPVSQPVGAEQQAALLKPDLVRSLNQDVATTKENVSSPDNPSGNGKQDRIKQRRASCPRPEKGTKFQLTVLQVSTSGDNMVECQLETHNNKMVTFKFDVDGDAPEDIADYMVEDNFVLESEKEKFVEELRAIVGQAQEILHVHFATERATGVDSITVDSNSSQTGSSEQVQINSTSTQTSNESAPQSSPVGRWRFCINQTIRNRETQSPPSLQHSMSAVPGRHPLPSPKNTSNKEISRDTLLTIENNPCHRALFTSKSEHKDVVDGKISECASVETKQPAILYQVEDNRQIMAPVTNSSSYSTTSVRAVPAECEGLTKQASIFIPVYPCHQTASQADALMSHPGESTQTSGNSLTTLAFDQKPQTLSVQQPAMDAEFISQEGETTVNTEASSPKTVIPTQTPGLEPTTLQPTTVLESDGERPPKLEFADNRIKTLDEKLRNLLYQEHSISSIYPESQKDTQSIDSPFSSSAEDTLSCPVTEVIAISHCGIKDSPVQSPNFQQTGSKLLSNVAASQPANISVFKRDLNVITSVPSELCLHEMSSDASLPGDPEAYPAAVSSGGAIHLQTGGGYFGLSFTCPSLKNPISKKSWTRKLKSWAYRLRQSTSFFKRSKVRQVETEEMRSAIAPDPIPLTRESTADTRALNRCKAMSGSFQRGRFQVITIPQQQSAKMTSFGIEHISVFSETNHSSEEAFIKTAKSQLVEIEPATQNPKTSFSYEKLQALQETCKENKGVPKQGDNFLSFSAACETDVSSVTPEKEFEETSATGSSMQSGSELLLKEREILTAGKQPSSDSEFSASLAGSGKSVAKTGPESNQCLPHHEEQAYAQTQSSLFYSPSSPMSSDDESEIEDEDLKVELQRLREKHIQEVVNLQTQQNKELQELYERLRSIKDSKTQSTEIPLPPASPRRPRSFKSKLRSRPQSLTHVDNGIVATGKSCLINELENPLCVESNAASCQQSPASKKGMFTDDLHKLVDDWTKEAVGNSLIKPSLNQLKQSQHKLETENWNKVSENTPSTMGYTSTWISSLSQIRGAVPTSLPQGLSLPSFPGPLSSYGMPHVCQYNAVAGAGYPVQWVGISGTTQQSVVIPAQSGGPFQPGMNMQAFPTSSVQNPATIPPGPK
COc1cc2nccc(Oc3ccc(NC(=S)NC(=O)c4ccccc4C)cc3)c2cc1OC: 101%
O=C1NC(=O)C(c2cn(CCCO)c3ncccc23)=C1c1cnccn1: 91.3%
C#Cc1cccc(Nc2ncnc3cc(OCCOC)c(OCCOC)cc23)c1: 101%
COc1ccc(CNC(=O)Nc2ncc([N+](=O)[O-])s2)cc1: 101%
COc1cc2ncnc(Nc3ccc(F)c(Cl)c3)c2cc1OCCCN1CCOCC1: 102%
Cc1cccc(-c2[nH]c(C(C)(C)C)nc2-c2ccc3c(c2)OCO3)n1: 94.2%
N#CC(C#N)=C(N)/C(C#N)=C/c1ccc(O)cc1: 99.8%
Cc1ccc(Nc2nccc(N(C)c3ccc4c(C)n(C)nc4c3)n2)cc1S(N)(=O)=O: 98.6%
Cn1c2ccccc2c2c3c(c4c5ccccc5n(CCC#N)c4c21)CNC3=O: 93.1%
O=C(O)c1ccc2c3c1cccc3c(=O)n1c3ccccc3nc21: 95.8%
CC(C)[C@H](CO)Nc1nc(Nc2cc(N)cc(Cl)c2)c2ncn(C(C)C)c2n1: 76.9%
NCCNc1ncc(C(N)=O)c(Nc2cccc(C(F)(F)F)c2)n1: 98%
COc1cc2ncnc(Nc3ccc(Oc4ccccc4)cc3)c2cc1OC: 87.8%
Nc1ncnc2n[nH]c(Nc3ccc(F)cc3)c12: 103%
COc1ccc(OC)c2c(=S)c3ccccc3[nH]c12: 99.1%

Set 2 — species: mouse; matrix: microsomes or S9; concentration: 2 µM; time: 0.5 h; measurement: remaining compound
CCOC(=O)c1ccc(-c2ccc(C3CC(=O)Nc4cc5c(cc43)OCO5)o2)cc1 (stereo not drawn): 50.8%
COc1ccc(OCC(=O)N(Cc2ccc(Br)o2)C2CCS(=O)(=O)C2)cc1 (stereo not drawn): > 100%
Cc1ccccc1C(C)NS(=O)(=O)c1ccc(Cl)c(-c2nnn[nH]2)c1 (stereo not drawn): > 100%
O=C(CC(c1ccccc1)c1ccccc1)N1CCN(c2ccccn2)CC1: 1.36%
CN1CCC2(CCN(c3cc(C(C)(C)C)nc(Cl)n3)CC2)C1=O: 8.07%

Set 3 — method: competition with immobilised ligand; concentration: 1 µM; measurement: remaining binding
SMILES: Cc1c(NC(=O)c2cc(C(N)=O)nc3cc(F)ccc23)c(C(F)(F)F)nn1Cc1ccc(C#N)cc1
Wee1-like protein kinase 2 (WEE2, Homo sapiens, UniProt P0C1S8); cell-free assay: 100%
Proto-oncogene tyrosine-protein kinase receptor Ret (RET, Homo sapiens, UniProt P07949, M918T); cell-free assay: 96%
Tyrosine-protein kinase ABL2 (ABL2, Homo sapiens, UniProt P42684); cell-free assay: 74%
Mast/stem cell growth factor receptor Kit (KIT, Homo sapiens, UniProt P10721, D816H); cell-free assay: 60%
Activin receptor type-2A (ACVR2A, Homo sapiens, UniProt P27037); cell-free assay: 97%
Activin receptor type-2B (ACVR2B, Homo sapiens, UniProt Q13705); binding: 93%

Set 4 — action: agonist; measurement: pEC50
Target: Beta-1 adrenergic receptor (ADRB1, Homo sapiens, UniProt P08588)
UniProt P08588, sequence (whole entry, looked up): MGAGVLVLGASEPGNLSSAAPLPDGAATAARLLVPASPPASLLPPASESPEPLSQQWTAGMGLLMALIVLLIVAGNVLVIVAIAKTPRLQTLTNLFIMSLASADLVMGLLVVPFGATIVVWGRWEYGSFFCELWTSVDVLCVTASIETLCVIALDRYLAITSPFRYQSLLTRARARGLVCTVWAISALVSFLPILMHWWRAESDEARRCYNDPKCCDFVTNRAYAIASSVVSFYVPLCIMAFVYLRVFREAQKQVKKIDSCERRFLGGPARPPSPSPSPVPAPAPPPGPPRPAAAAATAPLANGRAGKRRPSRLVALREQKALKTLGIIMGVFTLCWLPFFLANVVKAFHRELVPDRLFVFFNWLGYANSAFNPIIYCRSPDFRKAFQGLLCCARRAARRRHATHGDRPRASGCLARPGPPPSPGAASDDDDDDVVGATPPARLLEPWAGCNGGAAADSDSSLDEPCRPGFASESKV
CC(=O)Oc1ccc2c(c1)Oc1cc(OC(C)=O)ccc1C21OC(=O)c2cc(C(=O)O)ccc21: ≤ 4.00
CC(C)(O)c1cc(CC2(NCc3cnc4ccccc4c3)COC2)no1: ≤ 4.00
c1ccc2nc(C3=NCCN3)ccc2c1: ≤ 4.00
O=C(O)c1ccnc(-c2ccnc(NCC(O)c3ccccc3Cl)n2)c1 (stereo not drawn): ≤ 4.00
N#CSCC(=O)c1ccc(O)c(O)c1: ≤ 4.00
Cc1cc(-c2nccc3c(=O)cc(N(C)c4ccccc4)oc23)ccn1: ≤ 4.00

Other studies, line by line
COc1ccc(-c2c(Nc3ccccn3)[nH]c3c(C4=CCCCC4)c(-c4ccccc4)nn3c2=O)cc1 — Cmax accumulation ratio (human cancer patients, plasma; oral, 400 mg QD, median, cycle 1 day 15; baseline: multiple over single dose): 3.25

A few entries again (set 1):
COc1cc2ncnc(Nc3ccc(F)c(Cl)c3)c2cc1OCCCN1CCOCC1: 102%
Nc1ncnc2n[nH]c(Nc3ccc(F)cc3)c12: 103%
